Measured values gathered from unrelated publications.
Every numbered part comes from another study and shows a few of its results, in no order. Positions count from the first letter of the parent shown.

Block 1 — technique: aptamer microarray, sandwich; form: DNA with 2'F-ANA; matrix: in vitro; tested at: 200 nM; added: Cy3 exosite-II aptamer, 400 nM; reading: higher = stronger binding; endpoint: mean fluorescence intensity; oligonucleotide: GGTTGGTGTGGTTGG
Target: Prothrombin, mature alpha-thrombin (F2, Homo sapiens, UniProt P00734)
Notes: whole 15-mer aptamer, many near background
Modification = 2'F-ANA at 2 4 5 7 8 9 11 13 14 15; result = 45.2 a.u.
Modification = 2'F-ANA at 1 2 4 8 9 11 12 13 15; result = 150 a.u.
Modification = 2'F-ANA at 4 7 10 11 14; result = 63.1 a.u.
Modification = 2'F-ANA at 4 5 6 8 10 12 13 14; result = 45.6 a.u.
Modification = 2'F-ANA at 1 2 4 8 9 10 11 14 15; result = 48.7 a.u.
Modification = 2'F-ANA at 1 2 6 7 9 12 14; result = 62.9 a.u.
Modification = 2'F-ANA at 1 2 8 12; result = 469 a.u.
Modification = 2'F-ANA at 2 3 5 6 9 10 14; result = 48.1 a.u.
Modification = 2'F-ANA at 1 7 9 12 14; result = 66.1 a.u.
Modification = 2'F-ANA at 1 3 4 5 6 15; result = 59.4 a.u.
Modification = 2'F-ANA at 1 5 6 9 11 12 13 15; result = 66.2 a.u.
Modification = 2'F-ANA at 2 3 4 5 7 8 11 12 13 15; result = 170 a.u.
Modification = 2'F-ANA at 1 8 15; result = 281 a.u.
Modification = 2'F-ANA at 1 3 6 10 11 15; result = 72.3 a.u.
Modification = 2'F-ANA at 1 2 3 8 9 11 14; result = 69.2 a.u.
Modification = 2'F-ANA at 3 5 9 11 12; result = 209 a.u.
Modification = 2'F-ANA at 4 5 7 10 11; result = 45.7 a.u.
Modification = 2'F-ANA at 1 3 5 8 9 10 14 15; result = 45 a.u.
Modification = 2'F-ANA at 1 2 3 4 5 7 8 14; result = 48.3 a.u.
Modification = 2'F-ANA at 1 2 4 5 6 8 11 12 15; result = 84.3 a.u.
Modification = 2'F-ANA at 1 6 7 8 10 11 14; result = 62.5 a.u.
Modification = 2'F-ANA at 2 3 7 9 10 11; result = 385 a.u.
Modification = 2'F-ANA at 6 10 11 15; result = 140 a.u.
Modification = 2'F-ANA at 2 3 4 9 10 11 13 14; result = 184 a.u.
Modification = 2'F-ANA at 3 4 6 8 9 11 13; result = 441 a.u.

Block 2 — technique: DHFR PCA, deep sequencing; matrix: yeast; added: (+)-ABA 17 µM; reference: wild-type fitted maximum; reading: higher = stronger binding; endpoint: relative binding score
Target: ABI1, truncated, D143A, DHFR fusion (Arabidopsis thaliana)
Notes: methotrexate growth selection, single substitutions
Starting sequence: PYL1, truncated, DHFR fusion (Arabidopsis thaliana); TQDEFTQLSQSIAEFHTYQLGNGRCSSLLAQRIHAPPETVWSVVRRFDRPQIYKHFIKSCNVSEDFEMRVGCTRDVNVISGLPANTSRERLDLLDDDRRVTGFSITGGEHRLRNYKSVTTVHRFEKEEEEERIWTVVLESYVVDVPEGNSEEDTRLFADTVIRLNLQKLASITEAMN; partner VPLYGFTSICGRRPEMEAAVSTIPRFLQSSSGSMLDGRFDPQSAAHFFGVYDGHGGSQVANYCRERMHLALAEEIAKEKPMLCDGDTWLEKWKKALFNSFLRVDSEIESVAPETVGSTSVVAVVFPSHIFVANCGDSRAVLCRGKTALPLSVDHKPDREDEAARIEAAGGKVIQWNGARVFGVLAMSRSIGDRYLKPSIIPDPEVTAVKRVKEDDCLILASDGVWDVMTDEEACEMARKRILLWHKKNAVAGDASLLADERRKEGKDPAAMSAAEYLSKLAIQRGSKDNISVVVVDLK
Variant = F124S; result = 70.7%
Variant = I162E; result = -3.64%
Variant = E14W; result = 29.8%
Variant = T173G; result = 42%
Variant = V44C; result = 56.3%
Variant = E127V; result = 87.5%
Variant = H110D; result = 15.7%
Variant = G107D; result = 64%
Variant = D48G; result = 13%
Variant = Y53M; result = 11%
Variant = T17K; result = 68%
Variant = Y18N; result = 61%
Variant = D48M; result = -1.42%
Variant = W41F; result = 4.22%
Variant = G81A; result = 7.56%

Block 3 — target: CCND1, cyclin fold, Cln2 fusion (human); technique: yeast growth competition, sequencing; matrix: yeast; notes: weak parent motif; reference: not given; reading: higher = stronger binding; endpoint: normalised enrichment score
Starting sequence: CDC6 docking peptide (human); TLKGRRLVFDNQL; partner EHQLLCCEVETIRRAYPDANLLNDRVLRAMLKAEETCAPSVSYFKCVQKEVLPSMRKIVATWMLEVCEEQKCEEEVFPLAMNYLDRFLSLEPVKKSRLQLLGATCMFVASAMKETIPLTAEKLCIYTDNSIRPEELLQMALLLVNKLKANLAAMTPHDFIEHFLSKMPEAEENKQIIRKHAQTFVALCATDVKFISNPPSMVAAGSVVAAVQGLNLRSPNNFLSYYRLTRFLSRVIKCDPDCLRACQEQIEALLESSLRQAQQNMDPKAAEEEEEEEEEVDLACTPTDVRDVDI
Variant = TLKGRRLVFWNQL [D10W]; result = 0.247
Variant = TLKGRRLVFDNWL [Q12W]; result = 0.88
Variant = TLKNRRLVFDNQL [G4N]; result = 0.523
Variant = TLKGRRLDFDNQL [V8D]; result = 0.99
Variant = TLKGRTLVFDNQL [R6T]; result = 0.324
Variant = TLKGRRLVFDNKL [Q12K]; result = -0.345
Variant = TLKGRRLVFDNNL [Q12N]; result = -0.131
Variant = TLKGRKLVFDNQL [R6K]; result = 0.0257
Variant = TLKGRRLVFCNQL [D10C]; result = 0.426
Variant = WLKGRRLVFDNQL [T1W]; result = 0.533
Variant = TLKGRRLVIDNQL [F9I]; result = 0.124
Variant = TLKSRRLVFDNQL [G4S]; result = -0.854
Variant = TLKGRRLCFDNQL [V8C]; result = 0.913
Variant = TLKGRRLVFPNQL [D10P]; result = -0.329
Variant = TLKGRRLVFDNQP [L13P]; result = 0.797
Variant = TLKGRQLVFDNQL [R6Q]; result = 0.511
Variant = TPKGRRLVFDNQL [L2P]; result = 0.393
Variant = TAKGRRLVFDNQL [L2A]; result = -0.191
Variant = TLKGARAVFDNQL [R5A L7A]; result = 0.19
Variant = TLKGRRLVFDDQL [N11D]; result = 1.19
Variant = TLHGRRLVFDNQL [K3H]; result = -0.0941
Variant = TLKGRRRVFDNQL [L7R]; result = 0.241
Variant = TLKGRRLVFDNEL [Q12E]; result = 0.526
Variant = VLKGRRLVFDNQL [T1V]; result = 0.576
Variant = TLKGRRLVVDNQL [F9V]; result = -0.509

Block 4 — technique: RNA Bind-n-Seq; form: RNA; matrix: in vitro; tested at: 365 nM; reference: no-protein control; reading: higher = stronger binding; endpoint: RBNS enrichment (R)
Target: RNA binding protein fox-1 homolog 2, RRM domain, GST-SBP tag (RBFOX2, Homo sapiens, UniProt O43251-10, residues 100-194)
Notes: natural RNA segment, single round, ends assumed
Constant ends, left off below: GGGAGUUCUACAGUCCGACGAUC … UGGAAUUCUCGGGUGCCAA
Residues (chain): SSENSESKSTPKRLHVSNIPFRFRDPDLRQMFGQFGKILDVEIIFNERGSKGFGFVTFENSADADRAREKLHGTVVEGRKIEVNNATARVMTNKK
Oligonucleotide = GAGGUUUGGUCUUCUGGGUGGUGUCCGUUUCCCCUCACUGUCAGGGAAAGCUGGAUCCCUCUGGCUGACUUAGAGUACUGUGACUUGGGCAUUGCUAAUGCCAGCGUGGG; result = 0.34
Oligonucleotide = UGCUACUCCCAGGAAAUGGGCUCCUGACACAGCAGUCUGCCACCACAGCCCCAGGAGGGUGUCAACACCAGCAAAUGCUGUAUUUGCAGCAUGUCCAAGAUGACCCUUCU; result = 0.36
Oligonucleotide = AGAGAAUUGUCCUCUGACCUCCAUGUGCGGUAGCCCACGUGACGCACCCAAUAAUAAUUAAAUAAAUAAAAACAAGGAAUUCUGUUCUUUUGCUUUAUCAGGAACACCAA; result = 0.339
Oligonucleotide = ACACUCUUCUCAGCUUAUAAAAUUUGCCGUUUUGUAUAUUUUUAAAUAUGGAUCAAAAAGAGUCUUGGAUACUCAGCCCCAUAUUUUGUGCUGAACUGACAUGAACAACC; result = 0.482
Oligonucleotide = UUGCCACAUCAAGAUUUUAGGGAAGGGGGGUAUAUGUGUAGUAGGGAUGCCGUUUGAAAACAGGCACUCUUCCCCUGAGGAUGGGAAAGGAGCUCUUCAGUUGGAGAUCU; result = 1.32
Oligonucleotide = UGAGAAAAUAGUUAACAAUUACUGUCAGGUGUCAUCACUGUUCAAAAGGUAAGCACAUUUAGAAUUUUGUUCUUGACAGUUAACUGACUAAUCUUACUUCCACAAAAUAU; result = 0.231
Oligonucleotide = CCAUGGAAACUGAGUGAUGGUUUGAAAUGAAGACUUUGUCGUGUACUUAGGAAGUAAAUAUCUUUUGAAUUAGAGAAAGUGUUGGGACAGAAAGUACUUUAUGUAACUAA; result = 0.359
Oligonucleotide = UAGAUUGUCCUUGGGUGAGUGAGAAAAAACACUUUGCAUUGCUUUCAGGUUGGUGGAAAAUGUCAGUGGUGUAGUGUUGAGGACCUCACUAUUUUUUUUUUUAAAUCAUU; result = 0.922
Oligonucleotide = CUCCAAACAUAUAUUCUGUGAGAUAACUGUGCCUGCUACCAAGUGUUAAUCCUGGGAUCGUAUUUUUAUAUCAUAUUCACAUAUUUGUUUUUUUAAUUGGUGUUAGAUGA; result = 0.462
Oligonucleotide = UGGUCCUAACCCAGACCCAGGGUCUGGAAGCUUAAUGUUGAGUUGGUGACUCCAGCCUCUUUCUCCUGGAGGUCACAAGAUGAUGAUUGCGUAGAUGUUGCCUGGUGCAA; result = 0.703
Oligonucleotide = GAAGCCCCCAGAAAUAAUGAGUGGGGAAGGUACUAGGGCACUGGCCUUGGCCUCAAAAGUGCAGGCACACUUGAAACUGGAAAGGAAGGUGCUCUGGGCACAUGUGGAUU; result = 0.663
Oligonucleotide = GAGGCCGAGGCAGGUGGAUCGCCUGAGCUCAGGAGUUCAAGACCAGCCUGGGCAACAUGGCAAAACCCCGUCUCUACUAAAAAUACAAAAAAUUAGCUGGGUGUGGUGGU; result = 0.293

Block 5 — technique: protein binding microarray; form: double-stranded DNA, one strand shown; matrix: in vitro; tested at: not given; reference: not given; reading: higher = stronger binding; endpoint: E-score
Target: Histone acetyltransferase KAT6A, both winged helices, GST fusion (KAT6A, Homo sapiens, UniProt Q92794, residues 1-181)
Notes: 8-mer, flanks averaged, mean of 2 arrays, mostly near background
Residues (chain): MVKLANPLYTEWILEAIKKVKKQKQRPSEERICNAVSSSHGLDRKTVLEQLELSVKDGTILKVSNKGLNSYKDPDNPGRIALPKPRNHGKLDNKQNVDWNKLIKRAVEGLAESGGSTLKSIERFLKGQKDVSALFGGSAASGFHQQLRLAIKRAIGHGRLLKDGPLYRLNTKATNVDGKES
Oligonucleotide = GCGCACAC; result = 0.251
Oligonucleotide = ATAGCCTA; result = -0.181
Oligonucleotide = ACAAAGCG; result = 0.18
Oligonucleotide = AGGCGAAG; result = -0.086
Oligonucleotide = ATATCGGA; result = 0.0188
Oligonucleotide = ACAATTGA; result = -0.0664
Oligonucleotide = GATAATTA; result = 0.00213
Oligonucleotide = GCGGAAAC; result = 0.254
Oligonucleotide = ACTTTCAC; result = -0.0125
Oligonucleotide = CCTTTGAC; result = -0.056
Oligonucleotide = CGTAGTCA; result = -0.0295
Oligonucleotide = ACAAACGC; result = 0.247
Oligonucleotide = GCATATCC; result = -0.0202
Oligonucleotide = CAATCTTA; result = -0.0807
Oligonucleotide = CGTTTCCA; result = -0.0816
Oligonucleotide = ACGATAGT; result = -0.0716
Oligonucleotide = GAGGGTAC; result = -0.199
Oligonucleotide = GAGACGGA; result = 0.114
Oligonucleotide = CTTACTAC; result = -0.0846
Oligonucleotide = GCACACCC; result = -0.085
Oligonucleotide = CAAGCATA; result = -0.185
Oligonucleotide = CTGCAGTC; result = -0.191

For quick reference, copied from above (block 2):
Variant = F124S; result = 70.7%
Variant = I162E; result = -3.64%
Variant = E14W; result = 29.8%
Variant = T173G; result = 42%
Variant = V44C; result = 56.3%
Variant = E127V; result = 87.5%
Variant = H110D; result = 15.7%
Variant = G107D; result = 64%
Variant = D48G; result = 13%
Variant = Y53M; result = 11%
Variant = T17K; result = 68%
Variant = Y18N; result = 61%
Variant = D48M; result = -1.42%
Variant = W41F; result = 4.22%
Variant = G81A; result = 7.56%
